# Experimental data of several laboratories.
# Compare with care: the assays were run in different laboratories. ± marks the error that the study gave.
SMILES,assay,system,conditions,kinetic solubility
CCOc1cc(-c2c(C)[nH]c3cc(OC)c(Cl)cc3c2=O)ccc1F,,,pH 7.4,< 2 µM
Cc1ccc(-c2nc3ccccc3o2)cc1NC(=O)c1cc([N+](=O)[O-])c(N2CCN(C)CC2)cc1Cl,,phosphate buffer,pH 7.4,< 1.6 µM
CN(C)C(=O)CCc1nc(-c2ccccc2)c(-c2ccccc2)o1,,aqueous buffer,"90 min, pH 7.4, 25 °C, 0.1% DMSO",50.3 ± 2.7 µM
COc1cc2[nH]c(C)c(-c3c(C)noc3C)c(=O)c2cc1Cl,,,pH 7.4,≥ 20 µM
CCCCC/C=C\C/C=C\CCCCCCCC(=O)O.Cc1cc(/C=C/C#N)cc(C)c1Nc1ccnc(Nc2ccc(C#N)cc2)n1,,Peceol,,< 50 mg/mL
O=C(N1CCCCC1)C12CC(c3ccccc3)(C1)C2,,PBS with DMSO,"2 h, pH 7.4, 25 °C",261 µM
Clc1ccc(C(c2c[nH]c3ccccc23)c2c[nH]c3ccccc23)cc1,,aqueous buffer,"90 min, pH 7.4, 25 °C, 0.1% DMSO",15.2 ± 0.5 µM
NC(=O)c1cccc(-c2nc(N3CCC(c4ccccn4)C3)c3ccccc3n2)c1 (centres unmarked),,Japanese Pharmacopoeia disintegration test solution 2,pH 6.8,0.004 mg/mL
Oc1c(Br)cc(Br)cc1/C=N/NC(=S)N[C@H]1CC2C=CC1C2 (some centres unmarked),,PBS,"24 h, pH 7.4, 21 °C, 2.0% DMSO",< 0.7 µM
c1ccc(-c2nc(N3CCCCCC3)c3ccccc3n2)nc1,,Japanese Pharmacopoeia disintegration test solution 2,pH 6.8,0.079 mg/mL
COc1cc2[nH]c(C)c(-c3cccc4c3oc3ccccc34)c(=O)c2cc1Cl,,,pH 7.4,< 2 µM
CCn1cnc2c(N3CCC(c4ccccn4)C3)nc(-c3ccccn3)nc21 (centres unmarked),,Japanese Pharmacopoeia disintegration test solution 2,pH 6.8,0.083 mg/mL
Cc1ccc(-c2nc3ccccc3o2)cc1NC(=O)c1cc([N+](=O)[O-])c(F)cc1Cl,,phosphate buffer,pH 7.4,< 1.6 µM
CCCCn1c(NS(=O)(=O)c2ccc(C)cc2)c(S(=O)(=O)c2ccccc2)c2nc3ccccc3nc21,,PBS,"24 h, pH 7.4, 21 °C, 2.0% DMSO",11.3 µM
NC1CCc2nc(-c3cccnc3)nc(Nc3cccc(F)c3)c2C1 (centres unmarked),,PBS with 2.5% DMSO,"24 h, pH 7.4",240 ± 13 µM
COc1cnc(NS(=O)(=O)c2ccc(N)cc2)nc1,,PBS,"2 h, pH 7.4, 25 °C, 2% DMSO",361 µM
c1ccc(-c2nc(N3CCOCC3)c3ccccc3n2)nc1,,Japanese Pharmacopoeia disintegration test solution 2,pH 6.8,0.083 mg/mL
Cc1ccc(-c2nc3ccccc3s2)cc1NC(=O)c1cc([N+](=O)[O-])c(N(C)CCN(C)C)cc1Cl,,phosphate buffer,pH 7.4,< 1.6 µM
COc1c(/C=C/c2ccc(NS(C)(=O)=O)cc2)cc(-n2ccc(=O)[nH]c2=O)cc1C(C)(C)C,chemiluminescent nitrogen detection,water,"pH 7.2, 23 °C",-4.68 log S
Fc1ccccc1Nc1nc(-c2ccccn2)nc2ccccc12,,Japanese Pharmacopoeia disintegration test solution 2,pH 6.8,0.007 mg/mL
O=C(Nc1cnc(Cl)c(Cl)c1)c1cc([N+](=O)[O-])c(F)cc1F,,phosphate buffer,pH 7.4,< 0.3 µM
COc1cc2[nH]c(C)c(-c3c(C)cc(C)cc3C)c(=O)c2cc1Cl,,,pH 7.4,2 to 6 µM
N#C/C(=C\c1ccc(O)c(O)c1)S(=O)(=O)c1ccccc1,,PBS,"24 h, pH 7.4, 21 °C, 2.0% DMSO",208 µM
COc1ccn2c(Nc3ccc(F)cn3)c(-c3ccccn3)nc2c1,shake flask HPLC-UV,sodium phosphate buffer,"24 h, pH 2.0, 2% DMSO",0.0763 mg/mL
Fc1ccccc1-c1nc(N2CCC(c3ccccn3)C2)c2ccccc2n1 (centres unmarked),,Japanese Pharmacopoeia disintegration test solution 2,pH 6.8,0.005 mg/mL
CC[C@H](C)C(=O)O[C@H]1C[C@H](O)C=C2C=C[C@H](C)[C@H](CC[C@@H](O)C[C@@H](O)CC(=O)O)[C@H]21,,aqueous buffer,"90 min, pH 7.4, 25 °C, 0.1% DMSO",≥ 100 µM
O=C(c1ccc(Nc2nccc(-c3cc4ccccc4s3)n2)cc1)N1CCC(N2CCCC2)CC1,,PBS,pH 7.4,0.03 mg/mL
Cc1ccc(CCC(=O)Nc2nnc(S(N)(=O)=O)s2)cc1,,PBS,pH 7.4,60.2 µM
Cc1nc2c(Cl)cccn2c1NC(=O)c1ccc(-c2ccc(N(C)C)cc2)o1,,aqueous buffer,"90 min, pH 7.4, 25 °C, 0.1% DMSO",74.8 ± 4.4 µM
Cc1ccn2c(NC3CCCC3)c(-c3ccc(N(C)C)cc3)nc2c1,shake flask HPLC-UV,sodium phosphate buffer,"24 h, pH 7.4, 2% DMSO",0.00033 mg/mL
COc1cc2[nH]c(C)c(-c3ccc(OC(C)C)cc3)c(=O)c2cc1Cl,,,pH 7.4,< 2 µM
Cc1[nH]c(C)c(S(=O)(=O)Nc2ccc(C(F)(F)F)c(Cl)c2Cl)c1C(=O)N1CCC(F)(F)C1,,,,56 µM
CCOC(=O)[C@H](CCSC)NC(=O)c1ccc(C2CC2)c(Cc2ccc(F)cc2)n1,,aqueous buffer with DMSO,,< 0.0001 mg/mL
O=C(Nc1cncc(-c2nc3ccccc3o2)c1)c1cc([N+](=O)[O-])c(F)cc1F,,phosphate buffer,pH 7.4,< 0.3 µM
Cc1ccn2c(Nc3ccc(F)cc3)c(-c3ccccn3)nc2c1,shake flask HPLC-UV,sodium phosphate buffer,"24 h, pH 2.0, 2% DMSO",0.0729 mg/mL
Cc1ccc(-c2nc3ccccc3s2)cc1NC(=O)c1cc([N+](=O)[O-])c(NCCN)cc1Cl,,phosphate buffer,pH 7.4,< 1.6 µM
O=C(O)C[C@H](O)C[C@H](O)/C=C/c1c(C2CC2)nc2ccccc2c1-c1ccc(F)cc1,,aqueous buffer,"90 min, pH 7.4, 25 °C, 0.1% DMSO",≥ 100 µM
COc1cc2[nH]c(C)c(-c3ccc(COc4ccccc4)cc3)c(=O)c2cc1Cl,,,pH 7.4,2 to 6 µM
COC(=O)c1cn(C)c2ccc(-c3cccnc3)cc12,,aqueous buffer,"90 min, pH 7.4, 25 °C, 0.1% DMSO",≥ 100 µM
Cc1ccc2nc(-c3ccccn3)c(Nc3ccc4c(c3)OCCO4)n2c1,shake flask HPLC-UV,sodium phosphate buffer,"24 h, pH 7.4, 2% DMSO",0.00835 mg/mL
COc1cc2[nH]c(C)c(-c3ccc(S(=O)(=O)N(C)C)cc3)c(=O)c2cc1Cl,,,pH 7.4,< 2 µM
CC1(C(F)(F)F)NC(=O)N(c2ccc(F)c(C(F)(F)F)c2)C1=O (centres unmarked),,,,≤ 0.05 mg/mL
CCN(CC)CCNC(=O)c1cc(S(C)(=O)=O)ccc1OC,,PBS,"2 h, pH 7.4, 25 °C",397 µM
Cc1cccc(NC2=NC(=O)/C(=C/C=C/c3ccco3)S2)c1C,,PBS,"24 h, pH 7.4, 21 °C, 2.0% DMSO",39.8 µM
COc1cc2[nH]c(C)c(-c3ccncc3)c(=O)c2cc1Cl,,,pH 7.4,6 to 12 µM
CCn1ncc2nc(-c3ccccn3)nc(N3CCC(c4ccccn4)C3)c21 (centres unmarked),,Japanese Pharmacopoeia disintegration test solution 2,pH 6.8,0.089 mg/mL
CCN(CC)CCNC(=O)c1cc(S(C)(=O)=O)cnc1OC,,PBS,"2 h, pH 7.4, 25 °C",394 µM
Cc1cccc(N2CCN(c3nc(-c4ccccn4)nc4ccccc34)CC2)n1,,Japanese Pharmacopoeia disintegration test solution 2,pH 6.8,0.031 mg/mL
COc1ccc(C(=O)N2CCCCC2)cc1,,PBS,"2 h, pH 7.4, 25 °C",341 µM
Cn1nc2c(=O)n(C3CC3)ccc2c1[C@](O)(c1cnc(C(F)(F)F)c(Cl)c1)C1CC1,nephelometry,phosphate buffer,"30 min, pH 6.5, 1% DMSO",12.5 to 25 µM

# Repeated from above:
SMILES,assay,system,conditions,kinetic solubility
CCOc1cc(-c2c(C)[nH]c3cc(OC)c(Cl)cc3c2=O)ccc1F,,,pH 7.4,< 2 µM
COc1ccn2c(Nc3ccc(F)cn3)c(-c3ccccn3)nc2c1,shake flask HPLC-UV,sodium phosphate buffer,"24 h, pH 2.0, 2% DMSO",0.0763 mg/mL
COc1ccc(C(=O)N2CCCCC2)cc1,,PBS,"2 h, pH 7.4, 25 °C",341 µM
CN(C)C(=O)CCc1nc(-c2ccccc2)c(-c2ccccc2)o1,,aqueous buffer,"90 min, pH 7.4, 25 °C, 0.1% DMSO",50.3 ± 2.7 µM
NC1CCc2nc(-c3cccnc3)nc(Nc3cccc(F)c3)c2C1 (centres unmarked),,PBS with 2.5% DMSO,"24 h, pH 7.4",240 ± 13 µM
Cc1ccn2c(Nc3ccc(F)cc3)c(-c3ccccn3)nc2c1,shake flask HPLC-UV,sodium phosphate buffer,"24 h, pH 2.0, 2% DMSO",0.0729 mg/mL
Cc1cccc(N2CCN(c3nc(-c4ccccn4)nc4ccccc34)CC2)n1,,Japanese Pharmacopoeia disintegration test solution 2,pH 6.8,0.031 mg/mL
